Assay results of several laboratories.
Each line is one published result; not all experiments were run side by side. “And” joins repeats or separate records; there may be more than shown. ± gives the spread as reported. Converted amounts (≈) assume the structure as drawn.

With `CC(C)N1CCC(NC2CCN(c3cccc(-c4cc5cc(F)ccc5[nH]4)c3)CC2)CC1` the CC50 was 5.06 µM (HCT-15).
For `CCCNCCc1c[nH]c2cccc(O)c12.CCCNCCc1c[nH]c2cccc(O)c12.O=C(O)/C=C/C(=O)O`, “head twitch count” read 6.4 ± 0.6 (C57BL/6J mice; subcutaneous, 0.03 mg/kg).
For `C[C@]12CC[C@H]3[C@@H](CC=C4CC(O)CC[C@@]43CO)[C@@H]1CCC2O` (stereo partly shown), the fold reduction was ~1.2 fold (item: ICAM1; rat, GAN diet-induced MASH, plasma, pooled; dose not given; relative to: vehicle).
With `CN1C(=O)C(C2C3=C(CC(C)(C)CC3=O)Oc3c(O)cccc32)C(=O)N(C)C1=O` (stereo not shown) the IC50 was > 100 µg/mL (3T3-L1 pre-adipocytes; cell viability, MTT; 72 h).
For `O=C(O)/C=C/C(=O)O.Oc1cccc2[nH]cc(CCNC3CCCCC3)c12`, the distance travelled was 2390 ± 347 cm (C57BL/6J mice; subcutaneous, 3 mg/kg, 30 min).
For `COc1cc2c(Oc3ccc4[nH]c(C)cc4c3F)ccnc2cc1OCC1(N)CC1`, “AST elevation incidence” read 25% (paediatric refractory sarcoma patients; 8 mg).
`COc1cc(CCC[P+](c2ccccc2)(c2ccccc2)c2ccccc2)c(OC)c2c1OCO2.[I-]` has a TGI of > -4 log M (HCT-15; SRB).
The MIC range of `CC[C@H](C)[C@H](NC(=O)[C@H](C)NC(=O)[C@H](CCCCN)NC(=O)[C@H](CC(C)C)NC(=O)[C@H](C)NC(=O)[C@@H](NC(=O)[C@H](Cc1c[nH]cn1)NC(=O)[C@H](CC(C)C)NC(=O)[C@@H](NC(=O)[C@@H](NC(=O)[C@H](CCCCN)NC(=O)[C@H](C)NC(=O)[C@H](C)NC(=O)[C@H](CO)NC(=O)[C@H](CCCCN)NC(=O)[C@H](Cc1ccccc1)NC(=O)[C@@H](NC(=O)[C@H](CCCCN)NC(=O)[C@H](CC(C)C)NC(=O)[C@H](Cc1ccccc1)NC(=O)[C@H](CO)NC(=O)[C@H](CCCCN)NC(=O)[C@H](Cc1c[nH]c2ccccc12)NC(=O)[C@H](CCCCN)NC(C)=O)[C@@H](C)O)[C@@H](C)O)C(C)C)[C@@H](C)O)C(=O)N[C@@H](CO)C(=O)N[C@@H](CO)C(N)=O` is reported as 32 µg/mL (≈ 10.9 µM) (Enterococcus faecalis; ATCC 29212).
Under “HA titre reduction”, `CCCCCCCCCCCC[N+](C)(C)CCOCC[N+](C)(C)CCCCCCCCCCCC.[Br-].[Br-]` is recorded as 3 ± 1 log units (influenza A virus A/PR/8/34 (H1N1); concentration not given, pre-treatment).
`CC(C)NCCc1c[nH]c2cccc(O)c12.O=C(O)/C=C/C(=O)O` — result for “head twitch count”: 6.4 ± 1 (C57BL/6J mice; subcutaneous, 0.03 mg/kg).
`CCCCCCCCCCCCCCCCCC[N+](C)(C)Cc1ccc(C[N+](C)(C)CCCCCCCCCCCCCCCCCC)cc1.[Br-].[Br-]` — result for “HA titre reduction”: 1 log units (influenza A virus A/PR/8/34 (H1N1); concentration not given, co-treatment).
With `Nc1ncnc2c1ncn2[C@@H]1O[C@@H]2COP(=O)(O)O[C@H]3[C@@H](O)[C@H](n4cnc5c(=O)[nH]cnc54)O[C@@H]3COP(=O)(O)O[C@H]2[C@H]1O` the fold enrichment was 12 (HFF-1; RNA sequencing, item: Reactome R-HSA-197264; upregulated pathways; relative to: mock).
For `C=CCNCCc1c[nH]c2cccc(O)c12.C=CCNCCc1c[nH]c2cccc(O)c12.O=C(O)/C=C/C(=O)O`, the distance travelled was 2910 ± 321 cm (C57BL/6J mice; subcutaneous, 0.1 mg/kg, 30 min).
`CS(=O)(=O)CCCn1c(Cn2c(=O)n(CC(F)(F)F)c3ccncc32)cc2cc(Cl)ccc21` — result for “LS mean viral load change”: -1.56 log10 copies/mL (respiratory syncytial virus; RT-qPCR; hospitalized infants 1-24 months, nasal swab; oral, 8 mg/kg daily, day 3, cohort 6-24 months; relative to: baseline).
The mRNA level of `C[C@H]1O[C@@H](O[C@H]2CC[C@@]3(C)[C@@H](CC[C@]4(C)[C@@H]3C=C[C@]35OC[C@@]6(CCC(C)(C)C[C@H]63)[C@@H](O)C[C@]54C)[C@]2(C)CO)[C@H](O)[C@@H](O[C@@H]2O[C@H](CO)[C@@H](O)[C@H](O)[C@H]2O)[C@H]1O` is reported as 0.286 and 0.292 and 0.272 and 0.338 and 0.293 and 0.33 (item: ACC-1; chronic-plus-binge ethanol-fed mice, AAV8-TBG-Null, liver; dose not given, high dose, unit not given; relative to: AAV8-TBG-Null ethanol group).
`CCCCNCCc1c[nH]c2cccc(O)c12.O=C(O)/C=C/C(=O)O` has a distance travelled of 2610 ± 104 cm (C57BL/6J mice; subcutaneous, 1 mg/kg, 30 min).
`CCCCCCCCCCCCCCCCCC[N+](C)(C)CCCCCCCCCCCC[N+](C)(C)CCCCCCCCCCCCCCCCCC.[Br-].[Br-]` gave a protection of 60.5 ± 4.3% (influenza A virus A/PR/8/34 (H1N1); concentration not given, pre-treatment).
`CC(NC(C)(C)C)C(=O)c1cccc(Cl)c1` (stereo not shown) has a lowest IC30 of 10.5 µM (seizure ion channel panel; ion current, inhibitor; lowest across channels).
Under “lung virus titre”, `O=C1c2c(O)c(=O)ccn2N([C@@H]2c3ccccc3SCc3c2ccc(F)c3F)[C@@H]2COCCN12` is recorded as 3 log10 TCID50/mL and 2.5 log10 TCID50/mL (influenza A virus H1N1; A/WSN/33, BALB/c mice, lung; subcutaneous, 1 mg/kg every 6 h, 24 h).
The distance travelled of `CC(C)(C)NCCc1c[nH]c2cccc(O)c12.CC(C)(C)NCCc1c[nH]c2cccc(O)c12.O=C(O)/C=C/C(=O)O` is reported as 2750 ± 266 cm (C57BL/6J mice; subcutaneous, 3 mg/kg, 30 min).
Under “log2 fold change”, `CC[C@H](C)[C@@H]1NC(=O)[C@@H]2CCCN2C(=O)[C@H](CC(C)C)NC(=O)[C@H](CC(C)C)NC(=O)CNC(=O)[C@@H](NC(=O)[C@@H](NC(=O)[C@H](CC(=O)O)NC(=O)CNC(=O)[C@@H](NC(=O)[C@H](C)NC(=O)CNC(=O)[C@H](CCCCN)NC(=O)[C@H](CC(C)C)NC(=O)[C@H](CC(C)C)NC(=O)[C@H](CCCCN)NC(=O)CNC(=O)[C@@H](NC(=O)[C@@H](N)CC(C)C)C(C)C)C(C)C)C(C)C)CSSC[C@@H](C(=O)O)NC1=O` is recorded as -2.76 (RNA-seq, item: Ptafr mRNA; mouse traumatic brain injury, frontal cortex and hippocampus; dose not given; relative to: TBI plus compound vs TBI).
With `COc1c(CCC[P+](c2ccccc2)(c2ccccc2)c2ccccc2)cc2c(c1OC)OCO2.[I-]` the TGI was -4.33 log M (UO-31; SRB).
`CCOP(=S)(OCC)Oc1ccc([N+](=O)[O-])cc1` has an IC50 of 0.055 µg/mL (≈ 0.189 µM) (nanobody A4; binding, ic-ELISA; together with: H1-OVA coating antigen).
For `CCNCCc1c[nH]c2cccc(O)c12.CCNCCc1c[nH]c2cccc(O)c12.O=C(O)CCC(=O)O`, the distance travelled was 2410 ± 95 cm (C57BL/6J mice; subcutaneous, 3 mg/kg, 30 min session).
Under “HA titre reduction”, `CCCCCCCCCCCCCCCCCC[N+](C)(C)CCCCCCCCCC[N+](C)(C)CCCCCCCCCCCCCCCCCC.[Br-].[Br-]` is recorded as 4 log units (influenza A virus A/PR/8/34 (H1N1); concentration not given, pre-treatment).

A few entries again:
For `C[C@]12CC[C@H]3[C@@H](CC=C4CC(O)CC[C@@]43CO)[C@@H]1CCC2O` (stereo partly shown), the fold reduction was ~1.2 fold (item: ICAM1; rat, GAN diet-induced MASH, plasma, pooled; dose not given; relative to: vehicle).
The MIC range of `CC[C@H](C)[C@H](NC(=O)[C@H](C)NC(=O)[C@H](CCCCN)NC(=O)[C@H](CC(C)C)NC(=O)[C@H](C)NC(=O)[C@@H](NC(=O)[C@H](Cc1c[nH]cn1)NC(=O)[C@H](CC(C)C)NC(=O)[C@@H](NC(=O)[C@@H](NC(=O)[C@H](CCCCN)NC(=O)[C@H](C)NC(=O)[C@H](C)NC(=O)[C@H](CO)NC(=O)[C@H](CCCCN)NC(=O)[C@H](Cc1ccccc1)NC(=O)[C@@H](NC(=O)[C@H](CCCCN)NC(=O)[C@H](CC(C)C)NC(=O)[C@H](Cc1ccccc1)NC(=O)[C@H](CO)NC(=O)[C@H](CCCCN)NC(=O)[C@H](Cc1c[nH]c2ccccc12)NC(=O)[C@H](CCCCN)NC(C)=O)[C@@H](C)O)[C@@H](C)O)C(C)C)[C@@H](C)O)C(=O)N[C@@H](CO)C(=O)N[C@@H](CO)C(N)=O` is reported as 32 µg/mL (≈ 10.9 µM) (Enterococcus faecalis; ATCC 29212).
